{"data": "Experimental data gathered from unrelated publications", "note": "Numbered parts are unrelated; each lists some results of a single study. Positions count from the first letter of the parent shown."}
{"data": "Block 1", "target": "Probable WRKY transcription factor 50, DNA-binding domain (WRKY50, Arabidopsis thaliana, UniProt Q8VWQ5, residues 99-173)", "technique": "DNA-protein interaction ELISA", "form": "double-stranded DNA, one strand shown", "medium": "in vitro, bacterial lysate", "tested at": "not given", "setting": "whole dsDNA probe, crude lysate protein", "baseline": "highest signal in screen", "direction": "higher = stronger binding", "Construct (chain)": "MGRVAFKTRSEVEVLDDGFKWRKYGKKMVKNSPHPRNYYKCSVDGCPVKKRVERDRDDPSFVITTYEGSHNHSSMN"}
{"Strand": "AAAAAAACCGATTACCATTTTTACTGAAAA", "relative absorbance": "15.1 % of maximum"}
{"Strand": "AAAAAACTACGTATATTCAGGCCCTAAAAA", "relative absorbance": "9.02 % of maximum"}
{"Strand": "AAAAAACTTCCCTCCTTGTCCTCCCCAAAA", "relative absorbance": "24.5 % of maximum"}
{"Strand": "AAAAAAAAATGCTAGCGCGTACGTAAAAAA", "relative absorbance": "28.4 % of maximum"}
{"Strand": "AAAAAATACTCTTCCTCGTTCTTGGTAAAA", "relative absorbance": "17.3 % of maximum"}
{"Strand": "AAAAAATGTCTTCTTACACCCTCTAGAAAA", "relative absorbance": "8.99 % of maximum"}
{"Strand": "AAAAAATATTCGCCGGTAGCCACGCTAAAA", "relative absorbance": "35.2 % of maximum"}
{"Strand": "AAAAAACGCCGGACAATCAGGCGCTCAAAA", "relative absorbance": "19.9 % of maximum"}
{"data": "Block 2", "target": "TAR DNA-binding protein 43, full length, His tag (TARDBP, Homo sapiens, UniProt Q13148, residues 1-414)", "technique": "RNA Bind-n-Seq", "form": "RNA", "medium": "in vitro", "tested at": "20 nM", "setting": "6-mer, flanks averaged, single round", "with": "150 mM KCl", "baseline": "input library", "direction": "higher = stronger binding"}
{"Strand": "GUGCGG", "6-mer enrichment (R)": 3.47}
{"Strand": "CGACUU", "6-mer enrichment (R)": 0.578}
{"Strand": "AUGUGG", "6-mer enrichment (R)": 1.66}
{"Strand": "AACGCC", "6-mer enrichment (R)": 0.634}
{"Strand": "GAUCCA", "6-mer enrichment (R)": 0.655}
{"Strand": "AUGUGA", "6-mer enrichment (R)": 0.935}
{"Strand": "GACACU", "6-mer enrichment (R)": 0.744}
{"Strand": "AAACCU", "6-mer enrichment (R)": 0.576}
{"data": "Block 3", "target": "POU domain, class 5, transcription factor 1, POU domain (Pou5f1, Mus musculus, UniProt P20263, residues 131-289)", "technique": "Spec-seq", "form": "double-stranded DNA, one strand shown", "medium": "in vitro", "tested at": "not given", "setting": "whole probe, mean of replicates", "baseline": "not given", "direction": "lower = stronger binding", "all sequences stand within": "GAGTCGTCTCGTCAGCAC … CCGTAGAGCACTCAGGTC", "UniProt P20263, sequence (131-289, looked up)": "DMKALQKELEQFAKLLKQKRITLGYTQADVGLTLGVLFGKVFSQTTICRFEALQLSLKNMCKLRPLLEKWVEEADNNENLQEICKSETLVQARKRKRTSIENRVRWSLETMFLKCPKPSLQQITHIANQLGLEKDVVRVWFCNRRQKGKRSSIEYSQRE"}
{"Strand": "ATGCCTGA", "relative binding energy [ln ratio]": 0.8}
{"Strand": "TGACTAAT", "relative binding energy [ln ratio]": 0.336}
{"Strand": "ATGCACAA", "relative binding energy [ln ratio]": -0.136}
{"Strand": "ATGCCTGC", "relative binding energy [ln ratio]": 0.768}
{"Strand": "ATGCTCCT", "relative binding energy [ln ratio]": 0.555}
{"Strand": "GTCCTAAT", "relative binding energy [ln ratio]": 0.673}
{"Strand": "ATGCACGA", "relative binding energy [ln ratio]": -0.0223}
{"Strand": "AGGATAAT", "relative binding energy [ln ratio]": 0.564}
{"data": "Mixed results", "parent": "viral docking peptide; TSVRRALFTGGSD"}
{"Change": "F8W", "target": "CCNF, cyclin fold, Cln2 fusion (human)", "test": "yeast growth competition, sequencing", "system": "yeast", "conditions": "strong parent motif", "scale": "baseline: not given, higher = stronger binding", "measurement": "normalised enrichment score", "value": 6.59}
